Measurements pooled from the literature.
± marks the error that the study gave. In brackets after ≈: the same amount, converted by molar mass.
Organism: Escherichia coli

Compound	assay	test system	setting	endpoint	result
N=C(N)NCCC[C@@H]1NC(=O)[C@H](CCCNC(=N)N)NC(=O)[C@@H](CCCNC(=N)N)NC(=O)[C@@H](CCCNC(=N)N)NC(=O)[C@@H](C(c2ccccc2)c2ccccc2)NC(=O)[C@H](Cc2c[nH]c3ccccc23)NC(=O)[C@@H](C(c2ccccc2)c2ccccc2)NC1=O	–	ATCC BAA-2452	1 x MIC, 24 h, preformed biofilm	biofilm mass reduction	41 to 49%
CC(C)C[C@H](NC(=O)[C@H](Cc1ccc(O)cc1)NC(=O)[C@@H]1CCCN1C(=O)[C@H](CCCNC(=N)N)NC(=O)[C@@H]1CCCN1C(=O)[C@H](CCCCN)NC(=O)[C@H](CC(=O)O)NC(=O)[C@@H]1CCCN1C(=O)[C@H](CCCNC(=N)N)NC(=O)C1(N)CCCCC1)C(=O)N1CCC[C@H]1C(=O)N[C@@H](CCCNC(=N)N)C(=O)N1CCC[C@H]1C(=O)N[C@@H](CCCNC(=N)N)C(=O)N1CCC[C@H]1C(=O)N1CCC[C@H]1C(=O)N[C@@H](CCCNC(=N)N)C(=O)N1CCC[C@H]1C(=O)N[C@H](C(=O)N[C@@H](CCCNC(=N)N)C(=O)N[C@@H](CSCc1ccccc1CSC[C@H](NC(=O)[C@H](CCCNC(=N)N)NC(=O)[C@@H](NC(=O)[C@@H]1CCCN1C(=O)[C@H](CCCNC(=N)N)NC(=O)[C@@H]1CCCN1C(=O)[C@@H]1CCCN1C(=O)[C@H](CCCNC(=N)N)NC(=O)[C@@H]1CCCN1C(=O)[C@H](CCCNC(=N)N)NC(=O)[C@@H]1CCCN1C(=O)[C@H](CC(C)C)NC(=O)[C@H](Cc1ccc(O)cc1)NC(=O)[C@@H]1CCCN1C(=O)[C@H](CCCNC(=N)N)NC(=O)[C@@H]1CCCN1C(=O)[C@H](CCCCN)NC(=O)[C@H](CC(=O)O)NC(=O)[C@@H]1CCCN1C(=O)[C@H](CCCNC(=N)N)NC(=O)C1(N)CCCCC1)C(C)C)C(=O)NN)C(=O)NN)C(C)C	membrane disruption, propidium iodide uptake	25922	90 min, 37 °C	MDC	19.1 ± 0.2 µg/mL
O=C(CCCc1cn(C[C@H]2O[C@@H]3O[C@H]4[C@H](O)[C@@H](O)[C@@H](O[C@H]5[C@H](O)[C@@H](O)[C@@H](O[C@H]6[C@H](O)[C@@H](O)[C@@H](O[C@H]7[C@H](O)[C@@H](O)[C@@H](O[C@H]8[C@H](O)[C@@H](O)[C@@H](O[C@H]9[C@H](O)[C@@H](O)[C@@H](O[C@H]2[C@H](O)[C@H]3O)O[C@@H]9Cn2cc(CCCC(=O)N[C@H]3CCOC3=O)nn2)O[C@@H]8Cn2cc(CCCC(=O)N[C@H]3CCOC3=O)nn2)O[C@@H]7Cn2cc(CCCC(=O)N[C@H]3CCOC3=O)nn2)O[C@@H]6Cn2cc(CCCC(=O)N[C@H]3CCOC3=O)nn2)O[C@@H]5Cn2cc(CCCC(=O)N[C@H]3CCOC3=O)nn2)O[C@@H]4Cn2cc(CCCC(=O)N[C@H]3CCOC3=O)nn2)nn1)N[C@H]1CCOC1=O	LuxR reporter, antagonist	DH5α sensor strain	40 µM, with: OHHL 200 nM	inhibition	53 ± 3%
CO[C@H]1O[C@H](COC(c2ccccc2)(c2ccccc2)c2ccccc2)[C@@H](OS(=O)(=O)c2ccccc2)[C@H](OS(=O)(=O)c2ccccc2)[C@H]1OS(=O)(=O)c1ccccc1	microbial killing, broth dilution	–	–	MBC	16 µg/mL (≈ 0.0187 mM)
O=c1c(O)ccc(Br)cc1O	microbial growth, broth dilution	ATCC35218	–	MIC80	19.8 µM (≈ 4.3 µg/mL)
COc1c(C)c(OC(=O)c2ccccc2)c(C)c(OC(=O)c2ccccc2)c1C(=O)/C=C/c1ccccc1	microbial killing, broth dilution	ATCC25922	–	MBC	> 5000 µg/mL
O=C(CCCc1cn(C[C@H]2O[C@@H]3O[C@H]4[C@H](O)[C@@H](O)[C@@H](O[C@H]5[C@H](O)[C@@H](O)[C@@H](O[C@H]6[C@H](O)[C@@H](O)[C@@H](O[C@H]7[C@H](O)[C@@H](O)[C@@H](O[C@H]8[C@H](O)[C@@H](O)[C@@H](O[C@H]2[C@H](O)[C@H]3O)O[C@@H]8Cn2cc(CCCC(=O)N[C@H]3CCOC3=O)nn2)O[C@@H]7Cn2cc(CCCC(=O)N[C@H]3CCOC3=O)nn2)O[C@@H]6Cn2cc(CCCC(=O)N[C@H]3CCOC3=O)nn2)O[C@@H]5Cn2cc(CCCC(=O)N[C@H]3CCOC3=O)nn2)O[C@@H]4Cn2cc(CCCC(=O)N[C@H]3CCOC3=O)nn2)nn1)N[C@H]1CCOC1=O	LuxR reporter, antagonist	DH5α sensor strain	100 µM, with: OHHL 200 nM	inhibition	20 ± 3%
CC(CCCOC(=O)CCC[N+](C)(C)C)C1CCC2C3CCC4CC(OC(=O)CCC[N+](C)(C)C)CCC4(C)C3CC(OC(=O)CCC[N+](C)(C)C)C12C (stereo not drawn)	microbial growth, disc diffusion	ATCC25922	31.2 µg/disc, 24 h	inhibition zone	8 mm
CCCCCCCCCCCC(=O)Oc1c(C)c(OC)c2c(c1C)OC(=O)[C@@H](CCCCCCCCCC)[C@]2(O)/C=C/c1ccccc1 (relative stereo)	microbial killing, broth dilution	ATCC25922	–	MBC	> 5000 µg/mL
[Cl-].[Cl][Ru-4]123([n+]4ccccc4-c4cc(-c5ccccc5)cc([n+]41)-c1cccc[n+]12)[n+]1ccc(-c2ccccc2)c2ccc4c(-c5ccccc5)cc[n+]3c4c21	ICP-MS	–	20 µM, 24 h	cellular uptake	11%
CCCCCC(=O)Oc1c(C)c(OC)c2c(/C=C/c3ccccc3)c(CCCC)c(=O)oc2c1C	microbial killing, broth dilution	ATCC25922	–	MBC	> 5000 µg/mL
COc1ccc2cc3[n+](cc2c1OC)CCc1cc2c(cc1-3)OCO2.[Cl][Fe-]([Cl])([Cl])[Cl]	–	–	24 h, 37 °C	MIC50	133 µM
Cc1cccc(C(=O)Sc2cccccc2=O)c1	microbial growth, broth dilution	ATCC35218	–	MIC80	100 µM (≈ 25.6 µg/mL)
OC[C@H]1O[C@@H]2O[C@H]3[C@H](O)[C@@H](O)[C@@H](O[C@H]4[C@H](O)[C@@H](O)[C@@H](O[C@H]5[C@H](O)[C@@H](O)[C@@H](O[C@H]6[C@H](O)[C@@H](O)[C@@H](O[C@H]7[C@H](O)[C@@H](O)[C@@H](O[C@H]1[C@H](O)[C@H]2O)O[C@@H]7CO)O[C@@H]6CO)O[C@@H]5CO)O[C@@H]4CO)O[C@@H]3CO	LuxR reporter bioluminescence, antagonist	DH5α sensor strain	200 µM, with: OHHL 200 nM	inhibition	-1 ± 2%
CC(CCCOC(=O)CCC[N+](C)(C)C)C1CCC2C3CCC4CC(OC(=O)CCC[N+](C)(C)C)CCC4(C)C3CCC12C (stereo not drawn)	microbial growth, disc diffusion	ATCC25922	125 µg/disc, 24 h	inhibition zone	14 mm
CO[C@@H]1[C@@H](OC)[C@H]2O[C@H]3[C@H](OC)[C@@H](OC)[C@@H](O[C@H]4[C@H](OC)[C@@H](OC)[C@@H](O[C@H]5[C@H](OC)[C@@H](OC)[C@@H](O[C@H]6[C@H](OC)[C@@H](OC)[C@@H](O[C@H]7[C@H](OC)[C@@H](OC)[C@@H](O[C@H]8[C@H](OC)[C@@H](OC)[C@@H](O[C@@H]1[C@@H](Cn1cc(CCCC(=O)N[C@H]9CCOC9=O)nn1)O2)O[C@@H]8Cn1cc(CCCC(=O)N[C@H]2CCOC2=O)nn1)O[C@@H]7Cn1cc(CCCC(=O)N[C@H]2CCOC2=O)nn1)O[C@@H]6Cn1cc(CCCC(=O)N[C@H]2CCOC2=O)nn1)O[C@@H]5Cn1cc(CCCC(=O)N[C@H]2CCOC2=O)nn1)O[C@@H]4Cn1cc(CCCC(=O)N[C@H]2CCOC2=O)nn1)O[C@@H]3Cn1cc(CCCC(=O)N[C@H]2CCOC2=O)nn1	LuxR reporter, antagonist	DH5α sensor strain	1 µM, with: OHHL 200 nM	inhibition	6%
CCCCCCCC(=O)Oc1c(C)c(OC)c2c(/C=C/c3ccccc3)c(CCCCCC)c(=O)oc2c1C	microbial killing, broth dilution	ATCC25922	–	MBC	> 5000 µg/mL
CO[C@@H]1[C@@H](OC)[C@H]2O[C@H]3[C@H](OC)[C@@H](OC)[C@@H](O[C@H]4[C@H](OC)[C@@H](OC)[C@@H](O[C@H]5[C@H](OC)[C@@H](OC)[C@@H](O[C@H]6[C@H](OC)[C@@H](OC)[C@@H](O[C@H]7[C@H](OC)[C@@H](OC)[C@@H](O[C@@H]1[C@@H](Cn1cc(CCCC(=O)N[C@H]8CCOC8=O)nn1)O2)O[C@@H]7Cn1cc(CCCC(=O)N[C@H]2CCOC2=O)nn1)O[C@@H]6Cn1cc(CCCC(=O)N[C@H]2CCOC2=O)nn1)O[C@@H]5Cn1cc(CCCC(=O)N[C@H]2CCOC2=O)nn1)O[C@@H]4Cn1cc(CCCC(=O)N[C@H]2CCOC2=O)nn1)O[C@@H]3Cn1cc(CCCC(=O)N[C@H]2CCOC2=O)nn1	LuxR reporter, antagonist	DH5α sensor strain	200 µM, with: OHHL 200 nM	inhibition	35 ± 1%
CC[C@H](C)[C@H](NC(=O)[C@H](CC1CCCCC1)NC(=O)[C@@H](Cc1ccccc1)NC(=O)[C@@H](N)CCCN)C(=O)N[C@H](Cc1ccccc1)C(=O)N[C@@H](Cc1cn(Cc2ccccc2)cn1)C(N)=O	bacterial growth	ATCC 35218	–	IC50	> 20 µg/mL
CC(C)c1ccc2c(c1)CCC1C(C)(CN(CC(O)C[N+](C)(C)C)CC(O)C[N+](C)(C)C)CCCC21C (stereo not drawn)	microbial growth, disc diffusion	ATCC25922	250 µg/disc, 24 h	inhibition zone	11 mm
O=C(CCCc1cn(C[C@H]2O[C@@H]3O[C@H]4[C@H](O)[C@@H](O)[C@@H](O[C@H]5[C@H](O)[C@@H](O)[C@@H](O[C@H]6[C@H](O)[C@@H](O)[C@@H](O[C@H]7[C@H](O)[C@@H](O)[C@@H](O[C@H]8[C@H](O)[C@@H](O)[C@@H](O[C@H]9[C@H](O)[C@@H](O)[C@@H](O[C@H]2[C@H](O)[C@H]3O)O[C@@H]9CO)O[C@@H]8CO)O[C@@H]7CO)O[C@@H]6CO)O[C@@H]5CO)O[C@@H]4CO)nn1)N[C@H]1CCOC1=O	LuxR reporter, antagonist	DH5α sensor strain	10 µM, with: OHHL 200 nM	inhibition	-3 ± 8%
